Results from different studies.
Compare with care: the assays were run in different laboratories. “And” joins repeats or separate records; there may be more than shown.

| Compound | assay | system | conditions | measurement | result |
| --- | --- | --- | --- | --- | --- |
| C[C@@H](NC(=O)N1C(=O)[C@H](Cc2ccnc(N)c2)[C@H]1C(=O)O)C1CCCCC1 |  | healthy adult Chinese volunteers | continuous intravenous infusion, 0.6 mg/kg/h, 5-day infusion, CTCAE 5.0 grading | incidence of AEs leading to discontinuation | 12.5% |
| O=c1ccc2cc3ccoc3cc2o1 |  | rat plasma | 8 ng/mL, 2 weeks, -70 °C, post-preparative stability | accuracy | 93.7% |
| C[C@@H]1OC(=O)NN=C1c1ccc(-c2ccc(F)cc2)c(C(F)(F)F)c1 | phase I trial, measured: Ascites worst grade 2 | human patients | 10 mg loading then 0.5 mg daily | patients with adverse event | 0% |
| FC(F)(F)Oc1cccc(-c2ccnc3[nH]c(C(F)(F)F)nc23)c1 |  | mouse, C57BL/6, male | oral gavage, 24 h | NOAEL | ≤ 1000 mg/kg |
| N#C[C@@]1(n2ccc(N)nc2=O)O[C@H](CO)[C@@H](O)[C@H]1O |  | CD-1 mouse, lung | intravenous, 15 mg/kg, 7 h | concentration | 223 ng/g and 412 ng/g and 327 ng/g |
| C[C@]1(CO)Cc2ncn(-c3ccc(C#N)c(Cl)c3)c2C(=O)O1 |  | human | 10 mg, European food-effect part, fed | any TEAE | 8.3% |
| O=C1Nc2cc3[nH]nc(-c4ccncc4)c3cc2CN1Cc1ccccc1 | measured: blurred vision | patients with advanced solid tumours | intravenous, dose not given | patients with TEAE | 33% |
| Cc1ccc(F)c2cc(C(=O)N[C@@H]3CCC[C@H](N4CC[C@H](N(C)S(C)(=O)=O)C4)C3)[nH]c12 |  | CD1 mouse, plasma | oral, 30 mg/kg, 7 h | plasma concentration | 72 ng/mL |
| C=C(CN(C(=O)c1c(C(F)F)nn(C)c1F)C1CC1)c1ccc(Cl)cc1Cl | static acute toxicity test | zebrafish (Brachydanio rerio) | 0.833 mg a.i./L, 24 h | mortality | 0% |
| CCCCCC[C@H]1C(=O)O[C@H](C)[C@H](NC(=O)c2cccc(NC=O)c2O)C(=O)O[C@@H](C)[C@@H]1OC(=O)CC(C)C |  | BALB/c mice | intraperitoneal, 10 (unit not given) | LD50 | 6.13 mg/kg |
| COc1cc2c(Oc3ccc4[nH]c(C)cc4c3F)ccnc2cc1OCC1(N)CC1 |  | paediatric refractory sarcoma patients | 10 mg | AST elevation incidence | 0% |
| Clc1ccc(-c2ccccc2)cc1 |  | Sprague-Dawley rat female, serum | inhalation, 35 µg/rat, 24 h | serum gamma-glutamyltransferase | 0 U/L |
| Cc1ccccc1C(=O)NN=Cc1ccc(O)c(Br)c1 |  | normal C3H/HeN mouse, plasma | intraperitoneal, 0.8 mg/kg | Cmax | 82.7 ng/mL |

For quick reference, copied from above:
| Compound | assay | system | conditions | measurement | result |
| --- | --- | --- | --- | --- | --- |
| C=C(CN(C(=O)c1c(C(F)F)nn(C)c1F)C1CC1)c1ccc(Cl)cc1Cl | static acute toxicity test | zebrafish (Brachydanio rerio) | 0.833 mg a.i./L, 24 h | mortality | 0% |
